Experimental data from different studies.
Protocols differ between the studies behind these lines. Values joined by “and” are separate records of one study, mostly repeats; a detail may differ. Numbers after ± are the reported error.
ABCG2: Broad substrate specificity ATP-binding cassette transporter ABCG2 (ABCG2, Homo sapiens, UniProt Q9UNQ0)
UniProt Q9UNQ0, sequence (whole entry, looked up): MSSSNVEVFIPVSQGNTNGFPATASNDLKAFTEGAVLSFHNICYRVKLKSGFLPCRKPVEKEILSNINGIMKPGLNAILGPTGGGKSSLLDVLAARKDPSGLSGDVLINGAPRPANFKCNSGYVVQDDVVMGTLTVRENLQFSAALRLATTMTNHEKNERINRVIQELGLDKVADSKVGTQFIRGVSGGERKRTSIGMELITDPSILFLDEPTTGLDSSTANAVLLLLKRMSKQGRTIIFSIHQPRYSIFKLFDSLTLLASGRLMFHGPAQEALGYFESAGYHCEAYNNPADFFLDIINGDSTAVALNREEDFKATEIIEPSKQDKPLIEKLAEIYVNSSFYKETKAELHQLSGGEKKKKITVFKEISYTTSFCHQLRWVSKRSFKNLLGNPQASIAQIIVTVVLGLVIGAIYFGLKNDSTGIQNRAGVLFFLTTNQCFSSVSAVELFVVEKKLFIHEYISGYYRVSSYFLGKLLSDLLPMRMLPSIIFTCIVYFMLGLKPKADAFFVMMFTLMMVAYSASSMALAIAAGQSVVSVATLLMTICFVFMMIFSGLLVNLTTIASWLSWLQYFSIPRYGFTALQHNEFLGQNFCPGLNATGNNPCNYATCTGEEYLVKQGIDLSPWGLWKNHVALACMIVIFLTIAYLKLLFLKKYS
UniProt Q70CQ1, sequence (whole entry, looked up): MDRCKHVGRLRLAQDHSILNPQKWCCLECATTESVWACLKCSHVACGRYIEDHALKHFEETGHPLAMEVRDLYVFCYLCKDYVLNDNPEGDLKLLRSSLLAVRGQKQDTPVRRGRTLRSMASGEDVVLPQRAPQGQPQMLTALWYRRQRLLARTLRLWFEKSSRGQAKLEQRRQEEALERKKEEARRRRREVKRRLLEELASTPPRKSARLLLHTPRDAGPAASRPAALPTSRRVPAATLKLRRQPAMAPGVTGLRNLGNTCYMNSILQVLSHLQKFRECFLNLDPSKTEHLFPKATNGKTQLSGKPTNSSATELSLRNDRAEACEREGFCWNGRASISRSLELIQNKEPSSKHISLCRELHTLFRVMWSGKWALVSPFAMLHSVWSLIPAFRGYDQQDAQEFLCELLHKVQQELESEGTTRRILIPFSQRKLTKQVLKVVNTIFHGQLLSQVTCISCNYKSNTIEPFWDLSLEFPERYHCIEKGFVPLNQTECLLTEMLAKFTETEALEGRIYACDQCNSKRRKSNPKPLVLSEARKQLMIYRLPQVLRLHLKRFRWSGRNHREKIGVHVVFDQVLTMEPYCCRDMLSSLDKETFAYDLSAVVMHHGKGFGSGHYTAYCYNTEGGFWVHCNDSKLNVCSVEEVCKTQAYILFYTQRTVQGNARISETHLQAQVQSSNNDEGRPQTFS
UniProt P08183, sequence (whole entry, looked up): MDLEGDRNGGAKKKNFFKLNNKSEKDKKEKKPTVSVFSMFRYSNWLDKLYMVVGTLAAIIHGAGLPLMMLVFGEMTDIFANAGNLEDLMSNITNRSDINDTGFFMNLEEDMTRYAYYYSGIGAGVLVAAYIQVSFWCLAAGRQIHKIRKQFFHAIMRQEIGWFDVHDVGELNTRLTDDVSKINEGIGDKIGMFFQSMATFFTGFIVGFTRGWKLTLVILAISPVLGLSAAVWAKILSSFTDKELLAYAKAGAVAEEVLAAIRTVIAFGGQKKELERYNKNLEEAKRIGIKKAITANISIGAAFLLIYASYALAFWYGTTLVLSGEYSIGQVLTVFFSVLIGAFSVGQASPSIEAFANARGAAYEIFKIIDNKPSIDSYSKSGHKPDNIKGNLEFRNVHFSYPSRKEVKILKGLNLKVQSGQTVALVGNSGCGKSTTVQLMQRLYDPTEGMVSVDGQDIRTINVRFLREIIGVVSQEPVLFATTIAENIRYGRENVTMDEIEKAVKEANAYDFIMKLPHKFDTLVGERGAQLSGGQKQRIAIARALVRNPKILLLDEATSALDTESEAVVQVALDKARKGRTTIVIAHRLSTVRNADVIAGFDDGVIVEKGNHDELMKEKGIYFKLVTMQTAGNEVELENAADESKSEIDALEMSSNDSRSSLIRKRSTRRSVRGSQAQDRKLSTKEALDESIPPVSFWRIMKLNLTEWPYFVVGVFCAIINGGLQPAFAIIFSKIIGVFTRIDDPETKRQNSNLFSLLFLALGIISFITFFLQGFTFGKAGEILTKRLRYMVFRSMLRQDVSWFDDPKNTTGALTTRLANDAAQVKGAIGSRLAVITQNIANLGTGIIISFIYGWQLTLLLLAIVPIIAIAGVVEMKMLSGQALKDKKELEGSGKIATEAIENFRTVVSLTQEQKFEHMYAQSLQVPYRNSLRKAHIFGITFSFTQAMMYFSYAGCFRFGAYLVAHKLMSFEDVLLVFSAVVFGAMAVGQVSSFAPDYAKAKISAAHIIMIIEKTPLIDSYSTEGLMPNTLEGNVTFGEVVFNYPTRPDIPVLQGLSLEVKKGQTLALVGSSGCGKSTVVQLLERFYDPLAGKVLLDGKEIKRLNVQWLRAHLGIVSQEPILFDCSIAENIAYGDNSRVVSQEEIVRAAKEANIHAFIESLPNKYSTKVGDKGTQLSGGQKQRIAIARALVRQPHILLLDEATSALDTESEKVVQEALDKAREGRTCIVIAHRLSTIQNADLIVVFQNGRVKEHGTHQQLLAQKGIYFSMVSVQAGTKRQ

Under “numerical aberration cells”, c1csc(CNc2cc[nH]n2)c1 is recorded as 0% (human peripheral blood lymphocytes; 25 µg/mL, 20 h).
For O=C1C(Br)=C(Br)C(=O)c2ccccc21, the germination inhibition was 64.1% (Solanum lycopersicum; seeds; 400 µg/mL, 168 h, 10% DMSO).
For CC[C@H](CO)N(CCN(N=O)[C@H](CC)CO)N=O, “revertant colonies per plate” read 33 ± 6 (Salmonella typhimurium; mutagenicity, Ames plate incorporation; TA98; 5000 µg/plate, without S9, methanol).
Cc1cc(Nc2ccc(S(F)(F)(F)(F)F)cc2)n2nc(C(C)(F)F)nc2n1: “patients with QTcB above threshold” 0% (Plasmodium falciparum; 12-lead Holter ECG; human malaria patients; oral, 400 mg, QTc above 500 ms).
Cc1cc(C(=O)NC(C)(C)COc2cccc3c2C(N)=NS(=O)(=O)N3)cc(C)n1 gave a cytotoxicity of 7% (human peripheral blood lymphocytes; CBPI, micronucleus test; 0.2 µg/mL, 4 h, with rat liver S9; relative to: vehicle).
CC(CCC(=O)O)C(=O)O (centres unmarked) — result for “z-scored log2 fold change”: -0.826 (binding, equilibrium dialysis LC-MS; 5 µM, thermostabilized A2AR-BRIL construct; relative to: no-protein control, direction not given).
C[C@H]1CCC[C@@H](C(=O)Nc2nnc(S(N)(=O)=O)s2)C1 (racemic) gave a Ki of 0.0493 µM (Alpha-carbonic anhydrase (Enterococcus faecium, UniProt Q3XYE8); CO2 hydration, inhibitor, stopped-flow kinetics).
CC[C@H]1[C@@H](O)[C@@H]2[C@H](CC[C@]3(C)[C@@H]([C@H](C)CCNC(=O)NS(=O)(=O)c4ccc(C(C)(C)C)cc4)CC[C@@H]23)[C@@]2(C)CC[C@@H](O)C[C@@H]12 gave a CL/F of 14.3 L/h (ATP-dependent translocase ABCB1 (ABCB1, Homo sapiens, UniProt P08183); human, plasma; dose not given, mean, together with: quinidine).
With O=C(O)CCn1nnc(-c2ccccc2)n1 the Kd was over 1000 µM (Ubiquitin carboxyl-terminal hydrolase 49, ZnF-UBD domain (USP49, Homo sapiens, UniProt Q70CQ1)).
The uptake rate of C[C@]12CCCN1CC1=NNC(=O)c3cc(F)cc4[nH]c2c1c34 is reported as 0.246 pmol/min/mg (ABCG2; substrate; membrane vesicles; 0.5 µM, together with: ATP).
CCCCCCCCCCCCC/C=C/[C@@H](O)[C@@H](N)COP(=O)(O)O — result for “z-scored log2 fold change”: -0.184 (binding, equilibrium dialysis LC-MS; 5 µM, thermostabilized A2AR-BRIL construct; relative to: no-protein control, direction not given).
CC[C@]1(O)C[C@H]2CN(CCc3c([nH]c4ccccc34)[C@@](C(=O)OC)(c3cc4c(cc3OC)N(C=O)[C@H]3[C@@](O)(C(=O)OC)[C@H](OC(C)=O)[C@]5(CC)C=CCN6CC[C@]43[C@@H]65)C2)C1 has a viability of 14.9% and 15.5% and 18.9% (CHP-212 resistant subline R2 (heterozygous USP7 V517F); cell viability; 3333.33 nM).
CCN1/C(=C/C(C)=O)Sc2ccc(F)cc21: “QTc interval change” 100 ± 3.5% (cynomolgus monkey; oral, 30 mg/kg, 4 h post-dose; relative to: pre-dose).
CC(C)c1nc(N(C)S(C)(=O)=O)nc(-c2ccc(F)cc2)c1/C=C/[C@@H](O)C[C@@H](O)CC(=O)O: “Papp (B to A)” 8.1 ± 1.1 ×10⁻⁶ cm/s (ABCG2; substrate; human EpiIntestinal microtissues; 5 µM, 2 h, together with: Ko143 5 µM).

A few entries again:
For O=C1C(Br)=C(Br)C(=O)c2ccccc21, the germination inhibition was 64.1% (Solanum lycopersicum; seeds; 400 µg/mL, 168 h, 10% DMSO).
For CC[C@H](CO)N(CCN(N=O)[C@H](CC)CO)N=O, “revertant colonies per plate” read 33 ± 6 (Salmonella typhimurium; mutagenicity, Ames plate incorporation; TA98; 5000 µg/plate, without S9, methanol).
